# Measured values pooled from the literature.
# Each numbered part is a random draw from the data of one study; scales do not carry over between parts.

# Sample 1 — observed: enzyme activity; action: inhibitor; tested at: 0.5 µM; baseline: control
# SMILES: O=C1NC(=O)C(c2cn(CCCn3ccnc3)c3ccccc23)=C1Nc1ccccc1
target,remaining activity
"Tyrosine-protein kinase Blk (BLK, Homo sapiens, UniProt P51451)",90.9%
"Homeodomain-interacting protein kinase 4 (HIPK4, Homo sapiens, UniProt Q8NE63)",90.7%
"Cyclin-dependent kinase 1, with cyclin B (CDK1, Homo sapiens, UniProt P06493)",84.9%
"Serine/threonine-protein kinase 16 (STK16, Homo sapiens, UniProt O75716)",110%
"3-phosphoinositide-dependent protein kinase 1 (PDPK1, Homo sapiens, UniProt O15530)",80.3%
"Ephrin type-A receptor 4 (EPHA4, Homo sapiens, UniProt P54764)",111%
"Tyrosine-protein kinase receptor UFO (AXL, Homo sapiens, UniProt P30530)",98.8%
"Tyrosine-protein kinase ABL1 (ABL1, Homo sapiens, UniProt P00519)",96.1%
"Serine/threonine-protein kinase WNK3 (WNK3, Homo sapiens, UniProt Q9BYP7)",100%
"Homeodomain-interacting protein kinase 2 (HIPK2, Homo sapiens, UniProt Q9H2X6)",87.6%
"Serine/threonine-protein kinase 17A (STK17A, Homo sapiens, UniProt Q9UEE5)",93.1%
"MAP kinase-activated protein kinase 3 (MAPKAPK3, Homo sapiens, UniProt Q16644)",92.4%

# Sample 2 — technique: competition with immobilised ligand; tested at: 0.1 µM
# Structure (SMILES): O=C(NCCCC1CCCCC1)c1ccc(CNC(=O)c2cnn(-c3ccccc3)c2C(F)(F)F)cc1
target,test,remaining binding
"Serine/threonine-protein kinase N1 (PKN1, Homo sapiens, UniProt Q16512)",cell-free assay,100%
"Cyclin-dependent kinase 8 (CDK8, Homo sapiens, UniProt P49336)",cell-free assay,97%
"Epidermal growth factor receptor (EGFR, Homo sapiens, UniProt P00533, L858R)",cell-free assay,100%
"Serine/threonine-protein kinase D3 (PRKD3, Homo sapiens, UniProt O94806)",cell-free assay,99%
"Myosin-IIIb (MYO3B, Homo sapiens, UniProt Q8WXR4)",binding,100%

# Sample 3 — cell line: mouse MPNST tumor cells; technique: high-content nuclear imaging; item: cell number; tested at: 10 µM; time: 12 h; setting: mean of 2 replicates; baseline: plate mean; reading: higher = more cells
Structure (SMILES),nuclei count [z-score]
O=S(=O)(c1cccc2c(Cl)cccc12)N1CCCNCC1,-3.36
OCc1cc(C(O)CNCCCCCCOCCCCc2ccccc2)ccc1O (centres unmarked),0.978
O=C(Nc1ccc(Cl)cc1)C1CCCN(C(=O)c2cccc(-c3ccco3)c2)C1 (centres unmarked),3.43
Cc1cccc(S(=O)(=O)N(C)[C@H](C)CCN2CCC(C)CC2)c1,-0.339
COc1cc([S+](C)[O-])ccc1-c1nc2cccnc2[nH]1 (centres unmarked),1.86
O=C(Nc1ccc(C(F)(F)F)cn1)N1CCN(c2ncccc2C(F)(F)F)CC1,2.74
O=C(NCc1ccccn1)Nc1nnc(-c2ccco2)o1,0.69

# Sample 4 — technique: phase 2a trial; species: idiopathic pulmonary fibrosis patients
# SMILES: CC(C)n1cnc(-c2ccc(F)cc2)c1-c1ncc(C(=O)Nc2ccc(N3CCN(C)CC3)cc2)[nH]1
conditions,patients with pneumonia [%]
"all arms pooled, grade 5 emergent event",0
"30 mg once daily, grade 2 emergent event",0
"30 mg once daily, grade 5 emergent event",0
"all arms pooled, grade 1 emergent event",0
"all arms pooled, grade 4 emergent event",0

# Excerpt of the above (sample 1):
target,remaining activity
"Tyrosine-protein kinase receptor UFO (AXL, Homo sapiens, UniProt P30530)",98.8%
"Tyrosine-protein kinase ABL1 (ABL1, Homo sapiens, UniProt P00519)",96.1%
"Serine/threonine-protein kinase WNK3 (WNK3, Homo sapiens, UniProt Q9BYP7)",100%
"Homeodomain-interacting protein kinase 2 (HIPK2, Homo sapiens, UniProt Q9H2X6)",87.6%
